# Measurements collected from several papers.
# Numbered parts are unrelated; each lists some results of a single study.

# Set 1
# Target: Centromere-binding protein 1, full length, N-terminal tag (CBF1, Saccharomyces cerevisiae, UniProt P17106, residues 1-351)
# UniProt P17106, sequence (whole entry, looked up): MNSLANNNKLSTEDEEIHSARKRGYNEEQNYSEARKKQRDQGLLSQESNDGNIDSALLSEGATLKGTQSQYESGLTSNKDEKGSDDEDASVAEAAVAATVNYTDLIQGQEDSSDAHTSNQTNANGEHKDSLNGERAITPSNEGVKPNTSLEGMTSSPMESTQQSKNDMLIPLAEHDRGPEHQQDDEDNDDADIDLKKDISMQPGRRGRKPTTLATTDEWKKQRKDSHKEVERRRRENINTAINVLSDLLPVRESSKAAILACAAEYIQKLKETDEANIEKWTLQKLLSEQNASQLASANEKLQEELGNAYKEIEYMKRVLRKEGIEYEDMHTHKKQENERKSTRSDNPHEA
# Technique: protein-binding microarray
# Form: double-stranded DNA, one strand shown
# Sample: in vitro
# Concentration: 0.8 µM
# Notes: whole 60-bp probe, no competitor
# Reading: higher = stronger binding
# All sequences stand within: … GTCTTGATTCGCTTGACGCTGCTG
Oligonucleotide,fluorescence intensity [a.u.]
GAATGATAACGCTTCAACGTGCAAAGGAACCGTTAG,612
GAATGTAACCTACATCATGCGTAGGCTTAATATTAG,522
CTAGATATGCTTGCCCTTACATCAGAATTACCATTC,521
CTATTTATTTCTCGAATCACCTGTATTTGTGCCTTC,736
TGTACGAAGCTATCTCACCTTATTATAGTAGTTAGG,535
GAATGAAGAGACCAGCATCAGAATTTTCATCATTAG,517
GAATCAAGTATGTACCTCACGAGAGCAATTTCATAG,576
GAATTCAGTCCATTGCGCGTGCAAGAATTTTCCTAG,953
GAATGATCACATTTCCACGCCATTTCGCATTCTTAG,601
CTATTTTACATTAATGACGTCATGGTAGTGCTCTTC,528
TGTACGAAGCTATTTCTGATGATTATAGTAGTTAGG,486
GAAAAAGAGATGCGCGGCGTGCCTGCGCGGCGGTAG,484
GAAGTAGAAGGTCATCACGAATATTAATTTTGTTAG,559
GAAGAGGAAATATCAGGTGTGCCAATACGTTAATAG,650
CTAAGAACGAACCCGCACGACGCGTGCAACGCTTTC,602
GAATTCATAATACCCCACGAAAAATCATTAATCTAG,500
GAAGACATTGTAAGAAACGTGACTTTTCAAATATAG,2500
CTACTTTACAATCGTGATGTGCCTATTTAATTCTTC,589
GAATTTCAACTCCCCCACGTCCAGCGGATTGCTTAG,492
GAAAAAAGATCTCATAGCGTGACATCCGTATATTAG,765
GAATTCAGCAATGGCCGCACGCCAGGACATGTGTAG,485
CTATGGAGATCCAGTCACGCCGGATGACTGGGTTTC,765
TGTACGAAGCTATCTCACGCATCTATAGTAGTTAGG,507
CTACCAATCGCATGGGTGGTGGTGGATGTTGTCTTC,516
CTAACAGCGCGCGGGCACGAGAAAGCTGCCCTATTC,679

# Set 2
# Target: Ras GTPase-activating protein-binding protein 1, RRM domain (G3BP1, Homo sapiens, UniProt Q13283)
# UniProt Q13283, sequence (whole entry, looked up): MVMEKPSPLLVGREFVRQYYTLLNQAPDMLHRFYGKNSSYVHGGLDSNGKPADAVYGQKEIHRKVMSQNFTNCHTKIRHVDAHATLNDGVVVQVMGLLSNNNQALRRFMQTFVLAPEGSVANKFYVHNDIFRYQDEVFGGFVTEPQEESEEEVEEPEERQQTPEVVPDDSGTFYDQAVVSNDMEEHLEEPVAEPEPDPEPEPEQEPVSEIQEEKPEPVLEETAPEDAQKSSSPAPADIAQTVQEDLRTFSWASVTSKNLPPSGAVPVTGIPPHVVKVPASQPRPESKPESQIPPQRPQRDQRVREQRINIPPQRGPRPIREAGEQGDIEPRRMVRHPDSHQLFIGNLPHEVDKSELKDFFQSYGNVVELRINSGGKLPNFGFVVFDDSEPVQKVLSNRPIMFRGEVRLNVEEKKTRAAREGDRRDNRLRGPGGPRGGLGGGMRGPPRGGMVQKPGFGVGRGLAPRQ
# Technique: RNA Bind-n-Seq
# Form: RNA
# Sample: in vitro
# Concentration: 1 µM
# Notes: whole 134-nt RNA, ends assumed
# With: 150 mM KCl
# Baseline: input library
# Reading: higher = stronger binding
# All sequences stand within: GGGAGUUCUACAGUCCGACGAUC … UGGAAUUCUCGGGUGUCAAGG
Oligonucleotide,log2 enrichment
GUCCUGUGCUACACAUCGUAUGUACCGAAUCGGGAAAAGGGGAAAAGGGGAAAAGGGGAAAGUAUUAUGUUACGCCGUUCGGAUCUGCAC,0.528
UGGGAGGUGGAUUUUGUUUAUUUUUUUAGCUCAUUUCCAGGGGUGGGAACUUUUUUUUAAUAUGUGUCAUGAAUAAAGUUGUUUUUGAAA,1.76
ACGCUCCAUGAAAGCUAGGAGGGAGUGAAAUAUCAGUGAUCAUCGCAAGGAAGGAGGCAGACAAGAGUAAGGCACACCUGACUCUUAGGA,-0.186
GCAGGAAGUAAAAACAAAUGGAAAUGCUUCGGAUAGUGGCAGGGGUGGGGGGUGCUAAGGAAAGGGUGGGAUGGGAGUGGGUAAAGAGUU,0.728
UCCUGUGCUACACAUCGUAUGUACCGAAUCGGGAAAAAAGGAAAAAAGGGAAAAAAGGGGAAAGUAUUAUGUUACGCCGUUCGGAUCUGC,-0.0398
UGGGAGGUGGAUUUUGUUUAUUUUUUUAGCUCAUUUCCAGGGAUGGGAAUUUUUUUUUAAUAUGUGUCAUGAAUAAAGUUGUUUUUGAAA,1.16
CACAGACAACACGCACCCACACAGACACAGAGGGAAGGGGUUGGGAUUGGGACAGGGUGCACAGCAGGGCGGGGUAGGACCCCAGCCCCU,-0.113
CAAGUCCUGUGCUACACAUCGUAUGUACCGAAUCGGGUUUGGGAGGGAAAAAGGGAAAGUAUUAUGUUACGCCGUUCGGAUCUGCACUUC,0.864
UCAAGUCCUGUGCUACACAUCGUAUGUACCGAAUCGGGGAAGGGAAGGAAGGGGAAAGUAUUAUGUUACGCCGUUCGGAUCUGCACUUCC,0.35
CCUGUGCUACACAUCGUAUGUACCGAAUCGGGGUUUUUUGGGUUUUUUGGUUUUUUGGGGAAAGUAUUAUGUUACGCCGUUCGGAUCUGC,-0.302
CACAGACAACACGCACCCACACAGACACAGACGGAAGGGGUUGGGAUGGGGACAGGGUGCACAGCAGGGCGGGGUAGGACCCCAGCCCCU,-0.0293
UGGCCCUGGUGGCAUGCGGGGAGGAAGAGGUGGCCUGAUGGAUCGUGGUGGUCCCGGUGGAAUGUUCAGAGGUGGCCGUGGUGGAGACAG,1.06
CUGUGCUACACAUCGUAUGUACCGAAUCGGCCCCCCCGGGCCCCCCCGGGGCCCCCCCGGGAAAGUAUUAUGUUACGCCGUUCGGAUCUG,-0.616
CCUCAAGUCCUGUGCUACACAUCGUAUGUACCGAAUCGGGCGGGGCGGCGGGAAAGUAUUAUGUUACGCCGUUCGGAUCUGCACUUCCAG,-0.171

# Set 3
# Target: Interferon regulatory factor 7, full length, phosphomimetic (IRF7, Homo sapiens, UniProt Q92985, residues 1-503, S471D/S472D/S475D/S476D/S477D/S483D/S484D/S487D)
# Technique: protein-binding microarray
# Form: double-stranded DNA, one strand shown
# Sample: in vitro
# Concentration: 2200 nM top
# Notes: 60-bp whole probe
# With: salmon DNA 0.4 mg/ml
# Baseline: random background probes
# Reading: higher = stronger binding
# All sequences stand within: GCCTAGCAC … GTCTTGATTCGCTTGACGCTGCTG
# Construct (chain): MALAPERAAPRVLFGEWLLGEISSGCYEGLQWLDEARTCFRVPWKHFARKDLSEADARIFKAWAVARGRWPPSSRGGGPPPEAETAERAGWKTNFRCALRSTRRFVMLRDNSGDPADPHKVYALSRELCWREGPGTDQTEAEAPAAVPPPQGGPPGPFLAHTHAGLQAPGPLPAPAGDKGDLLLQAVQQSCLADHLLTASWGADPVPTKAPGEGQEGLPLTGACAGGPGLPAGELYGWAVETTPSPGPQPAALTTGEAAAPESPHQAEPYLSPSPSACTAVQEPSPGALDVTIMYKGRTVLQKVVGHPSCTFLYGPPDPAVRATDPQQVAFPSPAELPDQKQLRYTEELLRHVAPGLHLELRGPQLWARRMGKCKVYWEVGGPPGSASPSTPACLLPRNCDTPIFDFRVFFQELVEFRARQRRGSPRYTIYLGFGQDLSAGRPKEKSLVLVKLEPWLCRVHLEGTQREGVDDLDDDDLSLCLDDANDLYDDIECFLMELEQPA
Oligonucleotide,fitted relative affinity
TTCTTTTTTTCTTTTATTAGGTGCTAG,3.36 z-score
GGCGGTCTCCTTATCCTGACGTGCTAG,0.17 z-score
GACGATTCCAGTTTCGAGCCGTGCTAG,3.15 z-score
TCAGCTCACGCTTTGGAACTGTGCTAG,0.593 z-score
GACGGTTTCGACTTTCGGGACGTGCTA,8.69 z-score
GACAATATCAGACTGGAGACGTGCTAG,-0.00414 z-score
TGAAGACTTTCTTTCAAATGGTGCTAG,0.0126 z-score
GACGGACTAGACTATCGGGACGTGCTA,-0.564 z-score
TTAGGACTGCTACTGCTTTTGTGCTAG,-0.117 z-score
AGACAAGCATTTGGTGATGCGTGCTAG,-0.669 z-score
CAGTTTTCCTATGTCATTTAGTGCTAG,2.96 z-score
TCATTTATAAATTATCTTACTGTGCTA,0.415 z-score
TCACATTCACCTGTCGTACTGTGCTAG,2.7 z-score
TTAGGTCACCTTATCCTTTAGTGCTAG,0.612 z-score
GACGATCTCAGACTGGACACGTGCTAG,-0.175 z-score
TTAGAACTGGGTCTCGATTAGTGCTAG,-0.0112 z-score
TTAGGTATCGGACTGGGTGAGTGCTAG,-0.131 z-score
GACGGAATCGACTTTCGGGACGTGCTA,3.28 z-score
TCATTTTTTAATTGAGAACTGTGCTAG,0.74 z-score
TTAGGTATCGGTTCCGGTTAGTGCTAG,2.09 z-score
TTAGGACTGCTTTTTCTTTAGTGCTAG,0.588 z-score
TCAGGTTTCGGACTGGGTTAGTGCTAG,3.59 z-score
GTAGGTATCGGTCTCGGTTAGTGCTAG,0.753 z-score

# Set 4
# Target: Histone acetyltransferase KAT6A, both winged helices, GST fusion (KAT6A, Homo sapiens, UniProt Q92794, residues 1-181)
# Technique: protein binding microarray
# Form: double-stranded DNA, one strand shown
# Sample: in vitro
# Concentration: not given
# Notes: 8-mer, flanks averaged, mean of 2 arrays, mostly near background
# Baseline: not given
# Reading: higher = stronger binding
# Target sequence (chain): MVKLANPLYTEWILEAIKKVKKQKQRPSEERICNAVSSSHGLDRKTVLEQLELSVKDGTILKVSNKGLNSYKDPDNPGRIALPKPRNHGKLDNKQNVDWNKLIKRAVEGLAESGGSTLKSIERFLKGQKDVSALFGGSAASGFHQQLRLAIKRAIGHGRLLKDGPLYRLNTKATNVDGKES
Oligonucleotide,E-score
AGATTGGC,-0.134
AGACCTCC,-0.0887
TCTACAGA,0.00699
CTTGACAC,-0.0106
AGCCCACA,-0.177
GGTTGCGA,0.0271
ACCCACCG,0.0748
CTACTCAG,-0.142
CGCCGTAA,0.339
CTATACAA,-0.0334
ACTGCTCA,-0.0869
CGTTAGGA,0.0905
AACTCCCA,-0.226
ATCGAGAA,-0.098
AAAGATCC,-0.0403
CTACGTGC,-0.0547
CCAAGGTA,-0.103
GTAAGAAC,-0.0477
GTCCAGTA,-0.146
GGTTGTCA,-0.103
CAACTTAA,-0.101
ACGTCGAA,-0.0126
CGGAGCCC,-0.0174
TGAGTACA,-0.0276
CCTACATC,-0.0775
